# Experimental data collected from several papers.
# Numbered parts are unrelated; each lists some results of a single study. Changes are numbered by the printed parent chain.

# Study 1 — target: CCNA2, cyclin fold, Cln2 fusion (human); technique: yeast growth competition, sequencing; sample: yeast; notes: strong parent motif; baseline: not given; direction: higher = stronger binding
# Parent: ORC1 docking peptide (human); PRARKRLELGNLG
Variant,normalised enrichment score
PRARKVLELGNLG [R6V],1.45
PRARKALELGNLG [R6A],1.07
PRGRKRLELGNLG [A3G],0.597
PRARKRLEGGNLG [L9G],1.37
PHARKRLELGNLG [R2H],4.29
PRARKRAELGNLG [L7A],1.03
RRARKRLELGNLG [P1R],4.49
PWARKRLELGNLG [R2W],3.28
PRARKDLELGNLG [R6D],0.712
PRARKQLELGNLG [R6Q],2.54
LRARKRLELGNLG [P1L],3.82
PRARKRLEMGNLG [L9M],6.06
PRARKRLELGNPG [L12P],5.6
PRARKRLELTNLG [G10T],4.12
PRARKRLEIGNLG [L9I],2.35
PRARKRLELGDLG [N11D],5.67
PRARKRNELGNLG [L7N],0.168
PRAMKRLELGNLG [R4M],1.66
PDARKRLELGNLG [R2D],2.91
PRARKMLELGNLG [R6M],2.45
PRARKRTELGNLG [L7T],0.227
YRARKRLELGNLG [P1Y],3.18
PRYRKRLELGNLG [A3Y],2.34
PRARKRLDLGNLG [E8D],6.2

# Study 2 — target: UBE2V2 UBC core domain (UniProt Q15819); technique: yeast two-hybrid; sample: yeast; notes: mostly zero background; baseline: not given; direction: higher = stronger interaction
# B1: CNOT4 RING domain (UniProt O95628); chain MSRSPDAKEDPVECPLCMEPLEIDDINFFPCTCGYQICRFCWHRIRTDENGLCPACRKPYPED
# B2: MKRN3 RING domain (UniProt Q13064); chain FAVQRGMDKVCGICMEVVYEKANPNDRRFGILSNCNHSFCIRCIRRWRSARQFENRIVKSCPQCRVTSELVIPSE
# B3: RUFY1 RING domain (UniProt Q96T51); chain QALKGHAWLKDDEATHCRQCEKEFSISRRKHHCRNCGHIFCNTCSSNELALPSYPKPVRVCDSCHTLLLQRCSSTAS
# B4: MID2 RING domain (UniProt Q9UJV3); chain KMETLESELTCPICLELFEDPLLLPCAHSLCFSCAHRILVSSCSSGESIEPITAFQCPTCRYVISLNHRGL
# B5: ARIH2 RING domain (UniProt O95376); chain HVPTSHPPHHCAVCMQFVRKENLLSLACQHQFCRSCWEQHCSVLVKDGVGVGVSCMAQDCPLRTPEDFVF
# B6: BFAR RING domain (UniProt Q9NZS9); chain GPQISVSEFSCHCCYDILVNPTTLNCGHSFCRHCLALWWASSKKTECPECREKWEGFPKVS
# B7: RNF182 RING domain (UniProt Q8N6D2); chain AESQASDELECKICYNRYNLKQRKPKVLECCHRVCAKCLYKIIDFGDSPQGVIVCPFCRFETCLPDDEV
# B8: TRIM11 RING domain (UniProt Q96F44); chain LSTNLQEEATCAICLDYFTDPVMTDCGHNFCRECIRRCWGQPEGPYACPECRELSPQRNLRP
# Construct (chain): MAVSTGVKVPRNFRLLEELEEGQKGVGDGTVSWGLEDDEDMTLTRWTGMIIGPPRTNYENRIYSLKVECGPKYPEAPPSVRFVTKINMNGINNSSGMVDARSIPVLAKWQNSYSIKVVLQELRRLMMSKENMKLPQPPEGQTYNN
Sequence,lacZ reporter activity
B1 (CNOT4 RING domain),0
LVKDFNPYITCYICKGYLIKPTTVTECLHTFCKTCIVQHFEDSNDCPRCGNQVHETNPLE (PCGF5 RING domain (UniProt Q86SE9)),0
DDVLTKDAGECVICLEELLQGDTIARLPCLCIYHKSCIDSWFEVNRSCPEHPAD (ZNRF1 RING domain (UniProt Q8ND25)),0
B2 (MKRN3 RING domain),0
B3 (RUFY1 RING domain),0
B4 (MID2 RING domain),0
B5 (ARIH2 RING domain),0
B6 (BFAR RING domain),0
B7 (RNF182 RING domain),0
B8 (TRIM11 RING domain),0
LEALSSDFLACKICLEQLRAPKTLPCLHTYCQDCLAQLADGGRVRCPECRETVPVPPEGV (TRIM56 RING domain (UniProt Q9BRZ2)),0
ASPKIFQKTKCSICNSALELPSVHFLCGHSFHQHCFESYSESDADCPTCLPENRKVMDMI (VPS11 RING domain (UniProt Q9H270)),0

# Study 3 — technique: RNA Bind-n-Seq; form: RNA; sample: in vitro; tested at: 365 nM; baseline: no-protein control; direction: higher = stronger binding
# Target: RNA binding protein fox-1 homolog 2, RRM domain, GST-SBP tag (RBFOX2, Homo sapiens, UniProt O43251-10, residues 100-194)
# Notes: natural RNA segment, single round, ends assumed
# Shared flanks, not repeated: GGGAGUUCUACAGUCCGACGAUC … UGGAAUUCUCGGGUGCCAA
# Residues (chain): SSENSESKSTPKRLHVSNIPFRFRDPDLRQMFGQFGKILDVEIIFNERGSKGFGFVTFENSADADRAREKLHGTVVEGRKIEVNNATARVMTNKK
Sequence,RBNS enrichment (R)
ACUAGAGGUUCCCUUUGCAUGUUGCACUCUGUUCUCAUUUGGAGAUUGAACUCUGAAUUAACACAGUAUUCAUUCAUCUGUGUUAUUUUGUAAAAAUAACUGUAGCUUAU,21.7
GGAGCCUUAUUCUGUACCCCACUUUCCUCUUUUUAAUGGUACACGGUGGUGAUAUUUUUCAUCCCCAACCCAUUGGACUCCAUCAUAUAAUCAUGAGUCAUGCAGAGCCA,0.448
GCUGUUUGAACAGCAGCGUUUCAUAGGAAGAGAAAAAGAUCAAUCUUGUAUUUUCUGACCACAUAAAGGCUUCUUCUCUUUGUAAUAAAGUAGAAAAGCUCUCCUCACUG,0.223
GGUACAUUUUUGCACUGAAACCUAAAGAUGUUUUAAAAACACUUUUCACAGAAAUAGUCCUUGUCAUUACAUUGUUCACUCAUGUGUUUGUACAUUUUUGUAUGUUAAUU,0.597
AAUGUAGUCAGCACUUAAUGGAGAGUAUGGAGUAGUGCAUUUUGCAGGGAUUUUUAUUCCGUCUUUUGAGGGGAAGAAUCUCUUUUUUGCAUUAAAAAAUCAUAUAAACU,0.383
UUAGUCCAGCCCAUUGCAGGCAUUCCUGGAACAGGUGAGAGGGUUUCUACUUCCCAUGAAGUAUAUAGGCUUACACUCAUCACCUCGUAAACAAGAACGGGCACAUUUCA,0.294
AGGUCUCCACCUUCAUCAAGGCUCAAGUGAGUGAGGGCAAAGGACGCCUCAUGCCUGGGCAGGACCCUGAGAAAACCAUAGGAGACAUGUUCCAGAACCAGGACCGCAAC,0.741
GUCCUUGCUGGGAUUUCCUUUUGGGAACCUGACUUUCCGACUCCAGAUCCUGCUGUCUGGAUCAGUGUUCUGGCUGGAGGUGCUGGAUUCUCUGAUUUUGCCUCCUCACU,0.359
AAAAAAAGAGUCAGCCCUUGGCUUCUGCUUCAAACCCUCAAGAGGGGAAGCAACUCCGUGUGCCUGGGGUUCCCGAGGGAGCUGCUGGCUGACCUGGGCCCACAGAGCCU,0.298
GGACUGGGUUUAUCUUUCAGUUGACAAAAAUCCAAGUUGUCUUUUGCUAGAAUAAAGCAGAAGGGCUUUCCUAACAUGCUUUAGAGCUUUUAUUGCUUCUUACUGAUACU,0.36
ACAAUUGCAUCUGUUACUAGUUUUGUAGGCUUUAAUCCUAGUGUGCGUUAAAUAUUGGGCAAAUUGCACUUGACUAAUUUUUGAAGAAAAGUAAUUUAUUCUGUCAAGAA,1.84
CACAAUGAAUUUUACUUGAAUAUUGUAUGUUGCAUUCCACUUCAUUUGAAAAUAAUGAAACCAUGUACCACUGUUUACAUCAUCUGUAGUGAUUUCAUAGAUAAUAUAUU,0.512

# Study 4 — target: BATF, bZIP domain (human); technique: DHFR protein complementation; sample: yeast; baseline: wild-type JUN-FOS pair; direction: higher = stronger binding
# Notes: single substitutions, most at no-binding floor
# Parent: JUN, bZIP domain (human); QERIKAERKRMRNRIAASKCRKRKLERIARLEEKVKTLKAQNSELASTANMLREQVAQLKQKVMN; partner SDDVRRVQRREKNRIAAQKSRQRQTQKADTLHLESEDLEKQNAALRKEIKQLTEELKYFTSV
Variant,binding fitness [natural log]
R53Y,-0.546
A46N,0.0575
L45F,-0.402
Q41P,-1.25
E33M,-0.1
A57R,-0.0792
S47C,-0.0044
M51D,0.0509
A29Q,-0.107
E44G,-0.177
L59N,-0.296
M51T,0.0725
Q41H,-0.162
A57L,-0.121
E32L,-0.116
L52C,-1.09
T37A,0.0794

# Study 5 — technique: DHFR PCA, deep sequencing; sample: yeast; together with: (+)-ABA 17 µM; baseline: wild-type fitted maximum; direction: higher = stronger binding
# Target: ABI1, truncated, D143A, DHFR fusion (Arabidopsis thaliana)
# Notes: methotrexate growth selection, single substitutions
# Parent: PYL1, truncated, DHFR fusion (Arabidopsis thaliana); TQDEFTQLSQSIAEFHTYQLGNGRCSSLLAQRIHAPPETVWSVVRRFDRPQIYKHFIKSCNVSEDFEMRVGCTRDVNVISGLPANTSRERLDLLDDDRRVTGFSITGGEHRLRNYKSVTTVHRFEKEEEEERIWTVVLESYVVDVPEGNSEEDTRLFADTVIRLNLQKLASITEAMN; partner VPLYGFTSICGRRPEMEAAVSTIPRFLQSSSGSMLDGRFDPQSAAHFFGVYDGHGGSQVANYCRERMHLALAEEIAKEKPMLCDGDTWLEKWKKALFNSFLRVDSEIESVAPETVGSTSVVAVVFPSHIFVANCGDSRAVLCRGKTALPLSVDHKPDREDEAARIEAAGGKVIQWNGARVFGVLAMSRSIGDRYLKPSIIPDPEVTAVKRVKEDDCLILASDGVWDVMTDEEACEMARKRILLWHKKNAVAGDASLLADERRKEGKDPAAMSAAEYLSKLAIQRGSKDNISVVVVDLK
Variant,relative binding score [%]
H122L,11.7
S117E,-22.4
L20D,85.2
I133T,93
Q7V,82.3
I52S,78.2
E127W,75.6
F124A,79.6
T119I,57.5
R24A,68
E147I,72.8
W134A,82.5
S9W,67.3
N85I,78.5
S140L,-1.79
E152Y,71.2
I79H,87.5
E152H,77.2
D3A,79.8
H34W,66.1

# Some of these lines once more (study 1):
Variant,normalised enrichment score
PRGRKRLELGNLG [A3G],0.597
PRARKRLEGGNLG [L9G],1.37
PHARKRLELGNLG [R2H],4.29
PRARKRAELGNLG [L7A],1.03
RRARKRLELGNLG [P1R],4.49
PWARKRLELGNLG [R2W],3.28
PRARKDLELGNLG [R6D],0.712
PRARKQLELGNLG [R6Q],2.54
LRARKRLELGNLG [P1L],3.82
PRARKRLEMGNLG [L9M],6.06
PRARKRLELGNPG [L12P],5.6
PRARKRLELTNLG [G10T],4.12
